{"data": "Measured values gathered from unrelated publications", "note": "Each numbered part is a random draw from the data of one study; scales do not carry over between parts. Values joined by “and” are separate records of one study, mostly repeats; a detail may differ.", "chain of UniProt Q99558 (whole entry, looked up)": "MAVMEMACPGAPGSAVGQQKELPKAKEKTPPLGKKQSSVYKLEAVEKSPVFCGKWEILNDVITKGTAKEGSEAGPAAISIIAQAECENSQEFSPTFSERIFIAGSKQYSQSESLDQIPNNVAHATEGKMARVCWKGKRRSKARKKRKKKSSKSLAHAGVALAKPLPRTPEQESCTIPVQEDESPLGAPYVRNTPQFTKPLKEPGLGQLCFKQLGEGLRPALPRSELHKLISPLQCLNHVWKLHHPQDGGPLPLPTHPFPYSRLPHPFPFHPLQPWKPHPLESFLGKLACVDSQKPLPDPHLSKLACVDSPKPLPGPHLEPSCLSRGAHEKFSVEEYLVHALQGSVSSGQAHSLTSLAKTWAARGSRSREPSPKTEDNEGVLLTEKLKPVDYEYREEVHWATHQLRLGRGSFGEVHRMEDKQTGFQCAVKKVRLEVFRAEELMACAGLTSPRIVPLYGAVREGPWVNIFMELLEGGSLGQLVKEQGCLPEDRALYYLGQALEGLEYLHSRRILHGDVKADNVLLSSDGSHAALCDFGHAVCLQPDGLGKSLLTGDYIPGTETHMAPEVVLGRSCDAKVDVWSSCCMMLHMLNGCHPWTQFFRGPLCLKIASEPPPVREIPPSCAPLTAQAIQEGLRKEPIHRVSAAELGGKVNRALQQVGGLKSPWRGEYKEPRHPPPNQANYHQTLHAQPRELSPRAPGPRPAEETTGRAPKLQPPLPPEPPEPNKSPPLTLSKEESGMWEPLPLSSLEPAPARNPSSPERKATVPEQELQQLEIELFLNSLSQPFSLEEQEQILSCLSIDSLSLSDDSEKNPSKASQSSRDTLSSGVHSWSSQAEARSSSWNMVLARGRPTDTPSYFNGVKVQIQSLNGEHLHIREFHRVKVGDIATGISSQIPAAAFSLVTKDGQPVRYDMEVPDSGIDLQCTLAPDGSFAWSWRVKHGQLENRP", "chain of UniProt P52333 (whole entry, looked up)": "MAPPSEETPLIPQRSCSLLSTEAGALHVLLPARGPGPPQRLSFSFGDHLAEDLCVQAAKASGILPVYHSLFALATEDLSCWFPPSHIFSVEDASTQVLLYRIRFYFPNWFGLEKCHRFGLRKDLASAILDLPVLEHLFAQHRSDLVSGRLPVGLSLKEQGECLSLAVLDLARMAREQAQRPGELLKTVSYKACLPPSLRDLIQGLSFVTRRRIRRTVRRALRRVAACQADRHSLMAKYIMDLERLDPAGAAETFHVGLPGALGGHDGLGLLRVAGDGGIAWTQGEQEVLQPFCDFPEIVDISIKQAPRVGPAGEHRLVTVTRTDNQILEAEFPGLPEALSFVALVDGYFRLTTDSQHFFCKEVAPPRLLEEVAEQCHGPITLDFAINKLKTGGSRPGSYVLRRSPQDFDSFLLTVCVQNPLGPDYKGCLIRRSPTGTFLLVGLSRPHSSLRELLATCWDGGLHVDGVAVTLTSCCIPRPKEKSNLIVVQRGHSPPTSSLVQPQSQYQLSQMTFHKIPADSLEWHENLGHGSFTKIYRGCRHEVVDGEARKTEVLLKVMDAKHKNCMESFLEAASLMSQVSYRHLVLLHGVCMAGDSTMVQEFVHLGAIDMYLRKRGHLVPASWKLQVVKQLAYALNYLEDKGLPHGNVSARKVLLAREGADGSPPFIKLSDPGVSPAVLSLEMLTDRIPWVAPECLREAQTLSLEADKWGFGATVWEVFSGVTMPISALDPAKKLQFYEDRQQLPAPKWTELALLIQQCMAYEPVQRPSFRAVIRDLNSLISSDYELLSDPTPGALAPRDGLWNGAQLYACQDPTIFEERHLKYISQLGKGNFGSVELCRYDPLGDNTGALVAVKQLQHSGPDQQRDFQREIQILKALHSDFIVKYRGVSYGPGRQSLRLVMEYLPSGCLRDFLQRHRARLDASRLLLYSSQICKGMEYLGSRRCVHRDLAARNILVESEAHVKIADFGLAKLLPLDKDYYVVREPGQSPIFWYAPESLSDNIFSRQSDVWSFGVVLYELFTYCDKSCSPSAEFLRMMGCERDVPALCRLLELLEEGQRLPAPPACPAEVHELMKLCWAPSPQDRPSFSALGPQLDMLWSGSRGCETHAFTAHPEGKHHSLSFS", "chain of UniProt Q12866 (whole entry, looked up)": "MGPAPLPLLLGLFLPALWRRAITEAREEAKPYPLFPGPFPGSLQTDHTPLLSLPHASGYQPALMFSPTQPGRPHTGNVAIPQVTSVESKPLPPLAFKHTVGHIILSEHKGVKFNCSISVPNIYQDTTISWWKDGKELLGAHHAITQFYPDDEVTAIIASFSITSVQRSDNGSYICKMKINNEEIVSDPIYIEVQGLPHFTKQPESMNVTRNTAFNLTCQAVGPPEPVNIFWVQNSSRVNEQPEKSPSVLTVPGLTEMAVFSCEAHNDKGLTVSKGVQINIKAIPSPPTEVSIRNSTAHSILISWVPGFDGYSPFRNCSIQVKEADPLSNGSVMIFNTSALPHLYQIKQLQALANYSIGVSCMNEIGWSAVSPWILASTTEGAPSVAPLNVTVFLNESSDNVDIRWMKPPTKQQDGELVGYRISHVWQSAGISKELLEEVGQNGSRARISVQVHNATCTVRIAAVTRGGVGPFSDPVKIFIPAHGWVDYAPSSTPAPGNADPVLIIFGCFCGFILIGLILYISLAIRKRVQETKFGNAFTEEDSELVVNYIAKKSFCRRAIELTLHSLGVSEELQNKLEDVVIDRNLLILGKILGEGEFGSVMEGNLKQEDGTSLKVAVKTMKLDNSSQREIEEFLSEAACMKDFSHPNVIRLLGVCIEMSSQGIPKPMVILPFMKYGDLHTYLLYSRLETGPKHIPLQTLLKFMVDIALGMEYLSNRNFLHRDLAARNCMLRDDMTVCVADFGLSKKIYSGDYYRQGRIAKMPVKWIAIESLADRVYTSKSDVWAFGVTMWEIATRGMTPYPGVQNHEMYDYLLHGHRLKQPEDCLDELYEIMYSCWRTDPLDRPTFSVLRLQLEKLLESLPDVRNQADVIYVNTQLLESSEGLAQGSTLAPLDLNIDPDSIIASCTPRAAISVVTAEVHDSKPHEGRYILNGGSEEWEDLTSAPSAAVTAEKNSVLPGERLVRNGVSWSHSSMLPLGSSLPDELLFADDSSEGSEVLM", "chain of UniProt Q8TD08 (whole entry, looked up)": "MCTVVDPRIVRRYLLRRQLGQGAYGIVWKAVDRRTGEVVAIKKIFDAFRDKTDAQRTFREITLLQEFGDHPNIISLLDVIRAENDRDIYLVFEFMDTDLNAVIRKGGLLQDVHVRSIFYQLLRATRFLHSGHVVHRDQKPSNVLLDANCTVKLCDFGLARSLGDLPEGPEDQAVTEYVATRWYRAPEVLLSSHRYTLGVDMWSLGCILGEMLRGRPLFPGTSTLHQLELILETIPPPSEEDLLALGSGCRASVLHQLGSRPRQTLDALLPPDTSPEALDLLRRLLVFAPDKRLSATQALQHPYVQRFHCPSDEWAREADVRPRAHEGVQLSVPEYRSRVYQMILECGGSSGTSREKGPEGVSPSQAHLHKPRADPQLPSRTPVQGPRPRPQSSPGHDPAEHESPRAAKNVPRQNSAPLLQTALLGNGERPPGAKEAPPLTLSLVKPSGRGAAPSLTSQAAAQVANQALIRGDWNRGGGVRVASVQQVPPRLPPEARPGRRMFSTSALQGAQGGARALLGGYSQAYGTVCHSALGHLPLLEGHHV", "chain of UniProt Q9HC98 (whole entry, looked up)": "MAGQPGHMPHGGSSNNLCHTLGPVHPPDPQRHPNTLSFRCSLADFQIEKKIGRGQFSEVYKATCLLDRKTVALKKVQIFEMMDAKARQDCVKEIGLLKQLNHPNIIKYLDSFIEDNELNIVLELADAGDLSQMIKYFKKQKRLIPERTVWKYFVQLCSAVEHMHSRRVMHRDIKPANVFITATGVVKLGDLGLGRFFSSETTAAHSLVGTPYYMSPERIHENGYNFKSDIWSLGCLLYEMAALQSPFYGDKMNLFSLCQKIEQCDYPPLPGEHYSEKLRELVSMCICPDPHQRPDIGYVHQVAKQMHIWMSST", "chain of UniProt P10398 (whole entry, looked up)": "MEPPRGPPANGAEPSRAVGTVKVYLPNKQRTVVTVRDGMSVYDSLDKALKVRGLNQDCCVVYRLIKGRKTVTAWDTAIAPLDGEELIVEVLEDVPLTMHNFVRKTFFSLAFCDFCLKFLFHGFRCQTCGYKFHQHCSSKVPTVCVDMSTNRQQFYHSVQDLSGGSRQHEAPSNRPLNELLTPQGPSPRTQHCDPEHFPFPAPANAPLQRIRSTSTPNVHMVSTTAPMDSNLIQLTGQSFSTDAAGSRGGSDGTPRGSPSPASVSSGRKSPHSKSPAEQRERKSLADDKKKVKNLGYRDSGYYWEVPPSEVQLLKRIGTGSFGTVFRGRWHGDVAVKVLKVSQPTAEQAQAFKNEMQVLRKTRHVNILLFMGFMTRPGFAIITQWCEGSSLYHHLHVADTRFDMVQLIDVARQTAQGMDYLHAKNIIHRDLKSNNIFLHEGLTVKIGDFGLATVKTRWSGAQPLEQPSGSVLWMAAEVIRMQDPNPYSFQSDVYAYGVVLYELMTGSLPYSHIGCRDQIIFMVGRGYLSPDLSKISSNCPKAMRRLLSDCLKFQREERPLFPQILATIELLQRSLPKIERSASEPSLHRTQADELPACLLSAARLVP"}
{"data": "Series 1", "SMILES": "CN(C(=O)c1ccccc1)c1cc(N(C)c2ccc3c(c2)CCc2ccc(C(=O)NCCN4CCOCC4)cc2C3=O)ccc1F", "effect on": "cell-free assay", "technique": "competition with immobilised ligand", "tested at": "1 µM"}
{"target": "CDK16 (Homo sapiens, UniProt Q00536)", "remaining binding [%]": 100}
{"target": "Tyrosine-protein kinase ABL1, phosphorylated (ABL1, Homo sapiens, UniProt P00519, T315I)", "remaining binding [%]": 84}
{"target": "PIK3CA (Homo sapiens, UniProt P42336)", "remaining binding [%]": 80}
{"target": "WNK2 (Homo sapiens, UniProt Q9Y3S1)", "remaining binding [%]": 100}
{"target": "MTOR (Homo sapiens, UniProt P42345)", "remaining binding [%]": 86}
{"target": "MAPK15 (Homo sapiens, UniProt Q8TD08)", "remaining binding [%]": 100}
{"data": "Series 2", "cell line": "mouse MPNST tumor cells", "technique": "high-content immunofluorescence imaging", "item": "nuclear SOX9", "tested at": "10 µM", "time": "12 h", "setting": "mean of 2 replicates", "baseline": "DMSO control", "reading": "higher = more nuclear SOX9"}
{"Compound": "C[C@]12CC[C@@H]3c4ccc(O)cc4CC[C@H]3[C@@H]1C[C@@H](O)[C@@H]2O", "nuclear SOX9 intensity": "105 % of DMSO"}
{"Compound": "COc1cc2nc(N3CCN(C(=O)COc4c(OC)cccc4C(C)C)CC3)nc(N)c2cc1OC", "nuclear SOX9 intensity": "192 % of DMSO"}
{"Compound": "COC(=O)Nc1nc2cc([S+]([O-])c3ccccc3)ccc2[nH]1 (centres unmarked)", "nuclear SOX9 intensity": "101 % of DMSO"}
{"Compound": "CC1(C)c2cc(Cl)ccc2N(CCc2nn[nH]n2)c2ccc(Cl)cc21", "nuclear SOX9 intensity": "96.5 % of DMSO"}
{"Compound": "Clc1cc2c(NC3CCCC3)nnc(-c3ccncc3)c2cc1Cl", "nuclear SOX9 intensity": "119 % of DMSO"}
{"Compound": "Nc1ncnc2c1nc(Br)n2[C@@H]1O[C@@H]2COP(=O)(O)O[C@H]2[C@H]1O", "nuclear SOX9 intensity": "88.5 % of DMSO"}
{"Compound": "OC(CCCN1CCCCC1)(c1ccccc1)c1ccccc1", "nuclear SOX9 intensity": "97.2 % of DMSO and 117 % of DMSO"}
{"Compound": "CCCCNc1cc(C(=O)O)cc(S(N)(=O)=O)c1Oc1ccccc1", "nuclear SOX9 intensity": "99.5 % of DMSO and 110 % of DMSO and 108 % of DMSO"}
{"data": "Series 3", "Compound": "O=C(Nc1ccc(Cl)cc1)c1ccccc1NCc1ccncc1", "effect on": "enzyme activity", "action": "inhibitor", "tested at": "0.5 µM", "baseline": "control"}
{"target": "NEK6 (Homo sapiens, UniProt Q9HC98)", "remaining activity [%]": 97.1}
{"target": "EPHA3 (Homo sapiens, UniProt P29320)", "remaining activity [%]": 92.1}
{"target": "MAPK3 (Homo sapiens, UniProt P27361)", "remaining activity [%]": 102}
{"target": "FRK (Homo sapiens, UniProt P42685)", "remaining activity [%]": 62.8}
{"target": "ARAF (Homo sapiens, UniProt P10398)", "remaining activity [%]": 91.4}
{"target": "MAPKAPK2 (Homo sapiens, UniProt P49137)", "remaining activity [%]": 97.6}
{"target": "NEK1 (Homo sapiens, UniProt Q96PY6)", "remaining activity [%]": 96}
{"target": "JAK3 (Homo sapiens, UniProt P52333)", "remaining activity [%]": 87.8}
{"target": "MAP3K14 (Homo sapiens, UniProt Q99558)", "remaining activity [%]": 114}
{"target": "GSK3B (Homo sapiens, UniProt P49841)", "remaining activity [%]": 89.3}
{"target": "TBK1 (Homo sapiens, UniProt Q9UHD2)", "remaining activity [%]": 88.4}
{"target": "MERTK (Homo sapiens, UniProt Q12866)", "remaining activity [%]": 79}
{"target": "GRK7 (Homo sapiens, UniProt Q8WTQ7)", "remaining activity [%]": 96.2}
{"data": "Series 4", "target": "Calcium/calmodulin-dependent protein kinase type II subunit alpha (CAMK2A, Homo sapiens, UniProt Q9UQM7)", "effect on": "enzyme activity", "action": "inhibitor", "tested at": "10 µM", "chain of UniProt Q9UQM7 (whole entry, looked up)": "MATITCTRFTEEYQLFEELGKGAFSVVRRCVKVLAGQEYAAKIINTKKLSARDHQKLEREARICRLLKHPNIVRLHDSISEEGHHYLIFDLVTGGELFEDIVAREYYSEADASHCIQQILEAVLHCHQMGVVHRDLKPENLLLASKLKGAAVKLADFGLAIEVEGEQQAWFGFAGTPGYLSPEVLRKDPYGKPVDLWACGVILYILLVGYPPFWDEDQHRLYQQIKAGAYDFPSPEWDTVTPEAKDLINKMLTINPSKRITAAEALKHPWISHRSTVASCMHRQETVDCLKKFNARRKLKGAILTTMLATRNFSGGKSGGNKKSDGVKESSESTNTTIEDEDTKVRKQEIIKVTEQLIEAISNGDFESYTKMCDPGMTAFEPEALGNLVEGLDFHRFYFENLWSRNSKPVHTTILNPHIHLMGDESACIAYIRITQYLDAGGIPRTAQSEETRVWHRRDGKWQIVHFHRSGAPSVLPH"}
{"Compound": "CN1CCN(c2cc3c(nn2)Oc2ccccc2N3C)CC1", "inhibition": "-9%"}
{"Compound": "O=C(O)CCc1c[nH]c2ccccc12", "inhibition": "28%"}
{"Compound": "CC(=O)c1ccc(O)c(C)c1", "inhibition": "2%"}
{"Compound": "CO/N=C(\\C(=O)N[C@@H]1C(=O)N2C(C(=O)[O-])=C(C[N+]3(C)CCCC3)CS[C@H]12)c1csc(N)n1", "inhibition": "-5%"}
{"Compound": "CC(C)=CCc1c(O)c(CC=C(C)C)c2oc3c(O)cccc3c(=O)c2c1O", "inhibition": "11%"}
{"note": "A few entries again (series 1):"}
{"target": "MAPK15 (Homo sapiens, UniProt Q8TD08)", "remaining binding [%]": 100}
{"target": "CDK16 (Homo sapiens, UniProt Q00536)", "remaining binding [%]": 100}
{"target": "PIK3CA (Homo sapiens, UniProt P42336)", "remaining binding [%]": 80}
{"target": "Tyrosine-protein kinase ABL1, phosphorylated (ABL1, Homo sapiens, UniProt P00519, T315I)", "remaining binding [%]": 84}
{"target": "MTOR (Homo sapiens, UniProt P42345)", "remaining binding [%]": 86}
